Earlier results, collected from citations in different studies.
Each line is one published result; not all experiments were run side by side. ± marks the error that the study gave.
CDK2: Cyclin-dependent kinase 2 (CDK2, Homo sapiens, UniProt P24941)
PTGS2: Prostaglandin G/H synthase 2 (PTGS2, Homo sapiens, UniProt P35354)
UniProt P35354, sequence (whole entry, looked up): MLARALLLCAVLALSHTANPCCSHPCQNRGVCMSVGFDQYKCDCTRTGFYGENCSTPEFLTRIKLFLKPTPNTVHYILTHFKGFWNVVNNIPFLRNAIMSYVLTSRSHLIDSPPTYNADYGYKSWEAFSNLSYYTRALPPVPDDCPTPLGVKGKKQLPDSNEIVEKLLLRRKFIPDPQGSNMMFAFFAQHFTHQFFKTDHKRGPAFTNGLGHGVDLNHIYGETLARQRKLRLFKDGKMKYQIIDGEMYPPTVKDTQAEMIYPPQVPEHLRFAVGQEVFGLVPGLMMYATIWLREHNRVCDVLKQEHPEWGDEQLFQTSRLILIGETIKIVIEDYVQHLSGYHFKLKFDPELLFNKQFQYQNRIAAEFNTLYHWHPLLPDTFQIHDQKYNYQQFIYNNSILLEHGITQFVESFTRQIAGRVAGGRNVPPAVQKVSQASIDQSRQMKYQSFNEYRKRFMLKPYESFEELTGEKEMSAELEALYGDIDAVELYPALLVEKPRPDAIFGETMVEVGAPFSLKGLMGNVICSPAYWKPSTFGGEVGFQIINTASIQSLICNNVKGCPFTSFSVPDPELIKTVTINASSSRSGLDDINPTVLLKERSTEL
EPAS1 PAS-B domain: Endothelial PAS domain-containing protein 1, PAS-B domain (EPAS1, Homo sapiens, UniProt Q99814)
UniProt Q99814, sequence (whole entry, looked up): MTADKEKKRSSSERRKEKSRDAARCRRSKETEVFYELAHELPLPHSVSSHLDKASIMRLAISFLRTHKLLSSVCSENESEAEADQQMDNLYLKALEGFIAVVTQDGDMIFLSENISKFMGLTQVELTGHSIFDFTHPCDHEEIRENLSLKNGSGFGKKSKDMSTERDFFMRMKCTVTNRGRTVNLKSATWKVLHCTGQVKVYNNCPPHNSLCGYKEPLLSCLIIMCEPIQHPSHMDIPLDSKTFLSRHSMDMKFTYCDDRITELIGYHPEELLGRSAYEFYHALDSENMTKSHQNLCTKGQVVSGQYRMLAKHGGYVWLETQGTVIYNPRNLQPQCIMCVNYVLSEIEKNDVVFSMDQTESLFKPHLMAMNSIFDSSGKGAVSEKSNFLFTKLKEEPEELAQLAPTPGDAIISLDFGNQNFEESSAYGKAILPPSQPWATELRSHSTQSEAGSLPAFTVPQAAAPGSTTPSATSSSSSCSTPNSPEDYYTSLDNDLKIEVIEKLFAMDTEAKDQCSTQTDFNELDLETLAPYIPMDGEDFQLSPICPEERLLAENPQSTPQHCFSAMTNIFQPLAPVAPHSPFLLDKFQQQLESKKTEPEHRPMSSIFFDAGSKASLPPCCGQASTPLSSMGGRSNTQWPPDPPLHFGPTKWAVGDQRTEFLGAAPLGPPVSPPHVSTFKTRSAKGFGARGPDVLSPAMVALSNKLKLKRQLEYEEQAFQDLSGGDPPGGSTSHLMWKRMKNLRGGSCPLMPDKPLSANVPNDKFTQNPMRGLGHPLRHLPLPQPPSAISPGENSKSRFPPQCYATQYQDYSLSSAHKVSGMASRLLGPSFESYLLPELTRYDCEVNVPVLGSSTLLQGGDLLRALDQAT
UniProt Q9NRH2, sequence (whole entry, looked up): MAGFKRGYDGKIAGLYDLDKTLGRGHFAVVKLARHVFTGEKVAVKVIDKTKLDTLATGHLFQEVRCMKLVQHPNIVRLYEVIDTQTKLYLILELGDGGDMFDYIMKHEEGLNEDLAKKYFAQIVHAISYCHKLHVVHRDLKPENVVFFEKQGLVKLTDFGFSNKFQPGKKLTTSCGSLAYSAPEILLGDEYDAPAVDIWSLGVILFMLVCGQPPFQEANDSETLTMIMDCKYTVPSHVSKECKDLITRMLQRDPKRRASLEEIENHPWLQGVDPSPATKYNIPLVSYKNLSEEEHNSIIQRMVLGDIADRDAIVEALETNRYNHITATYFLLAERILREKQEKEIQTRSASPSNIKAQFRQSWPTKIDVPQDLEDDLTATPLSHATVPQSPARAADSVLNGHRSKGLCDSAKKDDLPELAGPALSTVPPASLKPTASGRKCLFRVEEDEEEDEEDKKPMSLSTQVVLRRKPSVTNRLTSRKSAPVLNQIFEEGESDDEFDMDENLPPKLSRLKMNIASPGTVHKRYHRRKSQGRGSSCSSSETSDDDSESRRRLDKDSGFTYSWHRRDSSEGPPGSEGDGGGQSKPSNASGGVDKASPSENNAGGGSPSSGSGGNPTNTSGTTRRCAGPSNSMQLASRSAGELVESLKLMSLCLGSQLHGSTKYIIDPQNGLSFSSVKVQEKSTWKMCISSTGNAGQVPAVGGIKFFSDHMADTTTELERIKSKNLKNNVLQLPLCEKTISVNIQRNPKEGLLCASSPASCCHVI

Structure (SMILES) | tested on | assay | test system | setting | scale | quantity | value
C[C@H]1COCCN1c1nc(-c2cnc(N)cc2C(F)F)nc(N2CCOCC2)n1 | A 172 | – | – | – | – | GI50 | 0.299 µM
CCS(=O)(=O)CNc1cc2cc(c1)Nc1nccc(n1)-c1cccc(c1)OCC/C=C/CN(C)C2 | CDK2 | – | – | – | – | IC50 | 0.008 µM
CNC(C)C1CCC(N)C(OC2C(N)CC(N)C(OC3OCC(C)(O)C(NC)C3O)C2O)O1 (stereo not shown) | Klebsiella pneumoniae | – | clinical isolate RKI-No_164/16 | – | – | MIC | > 8 µg/mL
O=C(O)CCCOc1ccc(F)cc1-c1cc(-c2ccccc2C(F)(F)F)n(-c2ccccc2)n1 | FABP4 | binding, ANS displacement | – | – | – | Kd | 0.238 ± 0.046 µM
CC1(C)S[C@@H]2[C@H](NC(=O)[C@H](N)c3ccccc3)C(=O)N2[C@H]1C(=O)O | Klebsiella pneumoniae | – | clinical isolate RKI-No_19/16 | – | – | MIC | > 16 µg/mL
CC(C)=CCc1cc2c(cc1O)O[C@H](c1ccc(O)cc1)CC2=O | estrogen receptor alpha | agonist | – | – | – | EC50 | 0.32 µM
CNC(=O)[C@@]12C[C@@H]1[C@@H](n1cnc3c(NCc4cccc(Cl)c4)nc(C#Cc4ccc(F)c(F)c4)nc31)[C@H](O)[C@@H]2O | beta-3 adrenergic receptor | radioligand binding | – | – | – | Ki | 1.5 µM
Cn1nc(C(=O)NCCc2ccccc2)c2c1-c1nc(Nc3ccccc3)ncc1CC2 | CDK2 | – | – | – | – | IC50 | 0.697 µM
O=C(O)c1cc(O)c(O)c(O)c1 | PTGS2 | inhibitor | – | – | – | IC50 | 64.3 µM
CCc1ccccc1-c1ccc(C(=O)NC[C@@H](N)C(=O)O)o1 | Glutamate receptor ionotropic, NMDA 1, with GluN2C (Grin1, Rattus norvegicus, UniProt P35439) | – | – | together with: saturating glutamate | – | EC50 | 0.063 µM
Fc1ncccc1-c1ccc2c(n1)[nH]c1ccncc12 | tau aggregates | binding, Scatchard analysis | human, Alzheimer's disease brain tissue | – | – | Kd | 0.0037 µM
CN1C/C=C/CCOc2cccc(c2)-c2ccnc(n2)Nc2cc(N)cc(c2)C1 | CDK2 | – | – | – | – | IC50 | 0.007 µM
O=C(O)Cc1cscc1Nc1c(Cl)cccc1Cl | PTGS2 | inhibitor | – | – | – | IC50 | 0.03 µM
O=C(O)/C(=C/c1c(C(=O)O)[nH]c2cc(Cl)cc(Cl)c12)c1ccccc1 | Grin1 (Rattus norvegicus, UniProt P35439) | binding | – | – | – | Ki | 0.021 µM
CCCCN(C)CC#Cc1ccc2[nH]c(C)c(Cl)c(=O)c2c1 | Plasmodium falciparum | whole cell extended time | 3D7 | 72 h | – | IC50 | 0.13 µM
Cc1c(Cl)cccc1Nc1ccccc1C(=O)Nc1ccc(N2CCNCC2)cc1 | PTGS2 | inhibitor | – | – | – | IC50 | 2.31 µM

Structure (SMILES) | tested on | assay | test system | setting | scale | quantity | value
CC(C)(c1ccc(O)cc1)c1ccc(O)cc1 | zebrafish estrogen receptor alpha | agonist | – | – | – | EC50 | 0.599 µM
COc1ccc(/C=N/n2c(Cc3ccc(C)cc3)n[nH]c2=S)c(O)c1 | PTGS2 | inhibitor | – | – | – | IC50 | 1.76 µM
O=[N+]([O-])c1cc(C(F)(F)F)ccc1NCc1ccco1 | EPAS1 PAS-B domain | binding, isothermal titration calorimetry | – | <0.1% DMSO | – | Kd | 1.5 µM
CSCC[C@H](NC(=O)[C@H](CCC(=O)O)NC(=O)[C@@H]1CCCN1C(=O)[C@@H](NC(=O)[C@@H]1CCCN1)[C@@H](C)O)C(=O)N[C@@H](CCCNC(=N)N)C(=O)N[C@@H](CCC(=O)O)C(=O)N[C@@H](CCCCN)C(=O)N[C@@H](CC(C)C)C(=O)N[C@H]1CSSC[C@@H]2NC(=O)[C@@H](NC(=O)[C@H](Cc3ccc(O)cc3)NC(=O)[C@H](CCCNC(=N)N)NC(=O)[C@H](C)NC(=O)[C@@H]3CCCN3C(=O)[C@H](CC(N)=O)NC(=O)[C@@H](NC(=O)[C@H](C)NC(=O)[C@H](C)NC(=O)[C@H](C)N)[C@@H](C)O)CSSC[C@H](NC(=O)CNC(=O)[C@H](CO)NC(=O)[C@H](CC(C)C)NC2=O)C(=O)N[C@@H]([C@@H](C)O)C(=O)N[C@@H](CCC(N)=O)C(=O)N[C@@H](CCC(N)=O)C(=O)N[C@@H](CC(=O)O)C(=O)N[C@@H](CC(C)C)C(=O)N[C@@H](CC(C)C)C(=O)N[C@@H]([C@@H](C)O)C(=O)N[C@@H](CC(C)C)C(=O)N[C@H](C(=O)N2CCC[C@H]2C(=O)N[C@@H](Cc2ccc(O)cc2)C(=O)O)CSSC[C@@H](C(=O)NCC(=O)NCC(=O)N2CCC[C@H]2C(=O)N[C@@H](CCCNC(=N)N)C(=O)N[C@@H](Cc2c[nH]c3ccccc23)C(=O)N[C@@H](CO)C(=O)N[C@H](C(=O)N[C@@H](CCC(=O)O)C(=O)N[C@@H](C)C(=O)O)[C@@H](C)O)NC(=O)[C@H](C(C)C)NC(=O)[C@H](CCCNC(=N)N)NC(=O)[C@H](C(C)C)NC(=O)[C@H](CC(C)C)NC(=O)[C@H](C)NC(=O)[C@H](CCCNC(=N)N)NC(=O)[C@H](C(C)C)NC(=O)[C@H](Cc2ccccc2)NC(=O)[C@H](Cc2c[nH]cn2)NC(=O)[C@H](Cc2c[nH]cn2)NC(=O)CNC1=O | LGR8 (RXFP2) | binding | – | – | – | Kd | 0.0001 µM
CCCCCCCCCCCCCCCCCCOC(=O)c1cc(O)c(O)c(O)c1 | PTGS2 | inhibitor | – | – | – | IC50 | 28.2 µM
CC[C@H](C)[C@H](NC(=O)[C@H](CC(C)C)NC(=O)[C@H](CCCNC(=N)N)NC(=O)c1ccc(CN2CCNCC2)cc1)C(=O)N[C@@H](Cc1ccccc1)C(=O)O | CDK2 | – | – | – | – | IC50 | 12.9 µM
Nc1cc(C(F)(F)F)c(-c2nc(N3CCOCC3)nc(N3CCOCC3)n2)cn1 | SNRK (Homo sapiens, UniProt Q9NRH2) | enzyme activity | – | 10 µM | baseline: untreated | remaining activity | 100%
Nc1scc2c1c(NCCO)nc1nc(NCCO)nc(N)c12 | CDK2 | – | – | – | – | IC50 | 0.09 µM
Cc1ccc2n1C(C)C(c1cc3n(c1C)C(C)C1OC4(C(C)O)C=Cc5ccc(C)n5C1C34)C=C2 (stereo not shown) | PTGS2 | inhibitor | – | – | – | IC50 | 5.31 µM
CCc1cccc(CC)c1NC(=O)c1nn(C)c2c1CCc1cnc(Nc3ccc(C(N)=O)cc3OC)nc1-2 | CDK2 | – | – | – | – | IC50 | 5.57 µM
Cc1ccc(S(=O)(=O)N2CCCN(C(=O)c3cc(-c4ccccc4)n[nH]3)CC2)cc1 | Plasmodium falciparum | whole cell extended time | 3D7 | 72 h | – | IC50 | 0.08 µM
CN1C/C=C/COCc2cccc(c2)Nc2nccc(n2)-c2cccc(c2)C1 | CDK2 | – | – | – | – | IC50 | 0.099 µM
Cc1c(CC[S+]([O-])CCO[N+](=O)[O-])cc(-c2ccc(S(C)(=O)=O)cc2)n1-c1ccc(F)cc1 (stereo not shown) | PTGS2 | inhibitor | – | – | – | IC50 | 0.005 µM
CC[C@H](C)[C@H](NC(=O)[C@H](CC(C)C)NC(=O)[C@H](CCCNC(=N)N)NC(=O)c1csc(-c2ccsc2)n1)C(=O)N[C@@H](Cc1ccccc1)C(=O)O | CDK2 | – | – | – | – | IC50 | 56.2 µM
O=[N+]([O-])c1cc(C(F)(F)F)ccc1NN1CCOCC1 | EPAS1 PAS-B domain | binding, isothermal titration calorimetry | – | <0.1% DMSO | – | Kd | 1.8 µM

A few entries again:
Structure (SMILES) | tested on | assay | test system | setting | scale | quantity | value
CN1C/C=C/COCc2cccc(c2)Nc2nccc(n2)-c2cccc(c2)C1 | CDK2 | – | – | – | – | IC50 | 0.099 µM
Cc1c(CC[S+]([O-])CCO[N+](=O)[O-])cc(-c2ccc(S(C)(=O)=O)cc2)n1-c1ccc(F)cc1 (stereo not shown) | PTGS2 | inhibitor | – | – | – | IC50 | 0.005 µM
